Experimental data from different studies.
Lines come from different studies, so protocols differ. ± gives the spread as reported.

Compound | test system | setting | scale | fluorescence quantum yield
C=Cc1ccccc1[B-]12OC(=O)C(c3ccccc3)=N[N+]1=Cc1ccc(N(CC)CC)cc1O2 (stereo not shown) | toluene |  |  | 0.64
CN(C)c1ccc(/C=C/c2cc(=O)cc(/C=C/c3ccc(N(C)C)cc3)o2)cc1 | acetonitrile | 10 µM, 298 K | reference: 9,10-diphenylanthracene in toluene | 0.006
COC(=O)c1ccccc1-c1c2ccc(=O)cc-2oc2c1ccc1cccc(O)c12 | 12.5 mM aqueous NaOH | pH 12.1, 10% DMSO |  | 0.19%
CCCCN1C(=O)c2cccc3c(N4CC[N+](C)(C5OC(C(=O)O)C(O)C(O)C5O)CC4)ccc(c23)C1=O (stereo not shown) | Tris-HCl-acetonitrile 1:1 | 5.0 µM | reference: quinine sulfate | 0.47
O=c1cc(/C=C/c2ccc(N(c3ccccc3)c3ccccc3)cc2)oc(/C=C/c2ccc(N(c3ccccc3)c3ccccc3)cc2)c1 | acetonitrile/water 1:19 v/v | 10 µM, 298 K, aggregate nanoparticle suspension |  | 0.048
CCCCN1C(=O)c2cccc3c(NCCCCCN4CCOCC4)ccc(c23)C1=O | DMSO |  |  | 1
CCN(CC)c1ccc2c(c1)O[B-]1(c3ccccc3C)OC(=O)C(c3ccccc3)=N[N+]1=C2 (stereo not shown) | toluene |  |  | 0.65
O=c1cc(/C=C/c2ccc(N3CCOCC3)cc2)oc(/C=C/c2ccc(N3CCOCC3)cc2)c1 | acetonitrile/water 1:19 v/v | 10 µM, 298 K, aggregate nanoparticle suspension |  | 0.004
CCN(CC)c1ccc2c(c1)O[B-]1(c3ccccc3)OC(=O)C(c3ccccc3)=N[N+]1=C2C (stereo not shown) | toluene |  |  | 0.75
CCCCN1C(=O)c2cccc3c(NCCN4CCOCC4)ccc(c23)C1=O | ethylene glycol |  |  | 0.02
CC1(C)C(=CC=C2CCCC(C=CC3=[N+](CCC[N+](C)(C)C)c4ccc(S(=O)(=O)O)cc4C3(C)C)=C2SCCOCCOCCC(=O)O)N(CCC[N+](C)(C)C)c2ccc(S(=O)(=O)O)cc21 | HEPES buffer with FBS | pH 7.4, 50 mM HEPES, 30% FBS |  | 5.9%
CCCCN1C(=O)c2cccc3c(NCCCCCCCCCCN4CCOCC4)ccc(c23)C1=O | ethylene glycol |  |  | 0.75
C=Cc1ccccc1[B-]12OC(=O)C(c3ccccc3)=N[N+]1=C(CC)c1ccc(N(CC)CC)cc1O2 (stereo not shown) | toluene |  |  | 0.61
Nc1ccc2cc(/C=C/C(=O)c3ccc(O)cc3)ccc2c1 | toluene |  | reference: coumarin 153 in ethanol | 2.4 ± 0.2%
CCC1=[N+]2N=C(c3ccccc3)C(=O)O[B-]2(c2ccccc2)Oc2cc(OC)ccc21 (stereo not shown) | toluene |  |  | 0.04
O=c1cc(/C=C/c2ccc(N3CCCC3)cc2)oc(/C=C/c2ccc(N3CCCC3)cc2)c1 | acetonitrile/water 1:19 v/v | 10 µM, 298 K, aggregate nanoparticle suspension |  | 0.12
CCC1=[N+]2N=C(/C=C/c3ccccc3)C(=O)O[B-]2(c2ccccc2)Oc2cc(N(CC)CC)ccc21 (stereo not shown) | toluene |  |  | 0.58
COc1ccc2nc(-c3ccc(N(C)C)cc3)sc2c1 | PBS | free dye |  | 0.055
CN1CCN(c2ccc3[nH]c(-c4ccc5[nH]c(-c6ccc(OCCCCNC(=O)c7cccc8c7C(=O)OC87c8ccc(N(C)C)cc8C(C)(C)c8cc(N(C)C)ccc87)cc6)nc5c4)nc3c2)CC1 | PBS |  |  | 0.05 ± 0.02

Repeated from above:
Compound | test system | setting | scale | fluorescence quantum yield
CCC1=[N+]2N=C(c3ccccc3)C(=O)O[B-]2(c2ccccc2)Oc2cc(OC)ccc21 (stereo not shown) | toluene |  |  | 0.04
CCN(CC)c1ccc2c(c1)O[B-]1(c3ccccc3C)OC(=O)C(c3ccccc3)=N[N+]1=C2 (stereo not shown) | toluene |  |  | 0.65
